{"data": "Results gathered from unrelated publications", "note": "Protocols differ between the studies behind these lines. Numbers after ± are the reported error."}
{"Structure (SMILES)": "COc1cc2ccnc(Cc3ccc(O[11CH3])c(OC)c3)c2cc1OC", "assay": "PET", "test system": "rhesus macaque, caudate", "setting": "intravenous, 3 min", "endpoint": "peak SUV", "value": "~2.5"}
{"Structure (SMILES)": "[11CH3]n1c(=O)n(CCCO)c(=O)c2c1nc(Oc1cccc(OC(F)(F)F)c1)n2Cc1ccc(Cl)cc1", "assay": "ex vivo biodistribution", "test system": "Sprague Dawley rat, thymus", "setting": "60 min post injection", "endpoint": "tracer uptake", "value": "0.43 ± 0.07 %ID/g"}
{"Structure (SMILES)": "CC(C)C[C@H](NC(=O)[C@H](CCCCN)NC(=O)[C@H](CCC(=O)O)NC(=O)[C@H](C)NC(=O)[C@@H](NC(=O)[C@H](CCCCN)NC(=O)[C@H](CC(=O)O)NC(=O)[C@H](Cc1ccc(O)cc1)NC(=O)[C@H](Cc1ccccc1)NC(=O)[C@H](C)NC(=O)[C@H](CCCCN)NC(=O)[C@H](CC(C)C)NC(=O)[C@H](Cc1c[nH]c2ccccc12)NC(=O)[C@@H](N)CC(=O)O)C(C)C)C(=O)N[C@@H](CCCCN)C(=O)N[C@@H](CCC(=O)O)C(=O)N[C@@H](C)C(=O)N[C@@H](Cc1ccccc1)C(=O)N1CCC[C@H]1C(=O)N[C@@H](CC(=O)O)C(=O)N[C@@H](Cc1c[nH]c2ccccc12)C(=O)N[C@@H](C)C(=O)N[C@@H](CCCCN)C(=O)N[C@@H](C)C(=O)N[C@@H](C)C(=O)N[C@@H](Cc1ccc(O)cc1)C(=O)N[C@@H](CC(=O)O)C(=O)N[C@@H](CCCCN)C(=O)N[C@@H](C)C(=O)N[C@@H](C)C(=O)N[C@@H](CCC(=O)O)C(=O)N[C@@H](CCCCN)C(=O)N[C@@H](C)C(=O)N[C@@H](CCCCN)C(=O)N[C@@H](CCC(=O)O)C(=O)N[C@@H](C)C(=O)N[C@@H](C)C(=O)O", "test system": "cynomolgus monkey male, plasma", "setting": "intravenous infusion, 8 mg/kg, day 1, 30 min infusion", "endpoint": "half-life", "value": "3.8 h"}
{"Structure (SMILES)": "CN(CC(=O)N(Cc1ccc(C2CCCCC2)cc1)c1ccc(C(=O)O)cc1)S(=O)(=O)c1c(F)c(F)c(F)c(F)c1F", "setting": "100 µM, added: 10 mM glutathione", "endpoint": "half-life of GSH adduct formation", "value": "1.32 h"}
{"Structure (SMILES)": "C[C@]12CC[C@H](O)CC1CCC1C2[C@H](O)C(=O)[C@]2(C)[C@@H](c3ccc(=O)oc3)CC[C@]12O (stereo partly drawn)", "assay": "sulfation, substrate", "test system": "pig liver cytosol", "setting": "pH 7.4", "endpoint": "CLint", "value": "0.26 µL/min/mg"}
{"Structure (SMILES)": "COc1cc2c3c(c4cc(OC)c(OC)cc4c2cc1OC)CN1CCCCC1C3 (stereo not drawn)", "test system": "Sprague-Dawley rat, male", "setting": "oral, dose not given", "endpoint": "Tmax", "value": "1 h"}
{"Structure (SMILES)": "CC(C)[C@H](NC(=O)CNC(=O)[C@H](CCC(N)=O)NC(=O)[C@H](C)N)C(=O)O", "test system": "human", "setting": "10 mg/kg single dose", "endpoint": "subjects with severe adverse events", "value": "0%"}
{"Structure (SMILES)": "NC(=O)[C@@H](Cc1ccccc1)N[11C](=O)OCc1ccccc1", "assay": "dynamic PET imaging", "test system": "male Wistar rats, spinal cord", "setting": "intravenous, 10 min", "endpoint": "maximum uptake", "value": "1 SUV"}
{"Structure (SMILES)": "CC[C@H](C)[C@H](NC(=O)CNC(=O)[C@H](CC(=O)O)NC(=O)[C@H](CC(C)C)NC(=O)[C@@H](NC(=O)[C@H](CC(N)=O)NC(=O)[C@H](CCC(N)=O)NC(=O)CNC(=O)[C@H](CC(C)C)NC(=O)[C@H](CCCCN)NC(=O)[C@H](CCC(=O)O)NC(=O)[C@@H](NC(=O)[C@H](CCCCN)NC(=O)[C@H](CCC(=O)O)NC(=O)[C@H](Cc1ccccc1)NC(=O)[C@H](CC(C)C)NC(=O)[C@H](CCCCN)NC(=O)[C@H](Cc1c[nH]c2ccccc12)NC(=O)[C@@H](N)CCC(=O)O)[C@@H](C)CC)[C@@H](C)CC)C(=O)N[C@H](C(=O)N[C@@H](CCCCN)C(=O)N[C@@H](CC(C)C)C(=O)NCC(=O)N1CCC[C@H]1C(=O)N[C@@H](CC(C)C)C(=O)N[C@@H](CC(C)C)C(=O)N[C@@H](C)C(=O)N[C@@H](CC(C)C)C(=O)N[C@@H](CC(C)C)C(=O)NCC(=O)N[C@@H](CCC(N)=O)C(=O)N[C@@H](CC(C)C)C(=O)N[C@H](C(=O)N[C@@H](CCC(N)=O)C(=O)N[C@H](C(=O)N[C@@H](C)C(=O)N[C@@H](CC(C)C)C(N)=O)[C@@H](C)CC)[C@@H](C)O)[C@@H](C)CC", "assay": "circular dichroism", "test system": "POPC vesicles 5 mM", "setting": "20 µM, fully membrane bound", "endpoint": "helicity", "value": "55%"}
{"Structure (SMILES)": "[2H]C([2H])([2H])C([2H])([2H])C([2H])([2H])OC(C(=O)OC1CCNCC1)(c1ccccc1)c1ccccc1", "assay": "measured: acne", "test system": "healthy Japanese male", "setting": "oral, 12 mg, 16 days, multiple ascending dose", "endpoint": "adverse drug reactions", "value": "0%"}
{"Structure (SMILES)": "CC[C@H](C)C(=O)N1CCC(NC(=O)Nc2ccc(OC(F)(F)F)c(F)c2)CC1", "test system": "human, plasma", "setting": "oral, 8 mg, single dose, fasted, healthy volunteers", "endpoint": "AUC(0-t)", "value": "3120 ng·h/mL"}
{"Structure (SMILES)": "CC(CCC(=O)NCC(=O)O)C1CCC2C3C(O)CC4CC(OC5OC(C(=O)O)C(O)C(O)C5O)CCC4(C)C3CCC12C (stereo not drawn)", "test system": "human, SLCO1B1 *15/*15, plasma", "setting": "geometric mean, sex-adjusted", "endpoint": "plasma concentration", "value": "255 ng/mL"}
{"Structure (SMILES)": "[3H]c1sc(C)nc1C=C(C)C1CC2C(CCCC(C)C(O)C(C)C(=O)C(C)(C)C(O)CC(=O)O1)N2CCO (stereo not drawn)", "assay": "whole-body autoradiography", "test system": "CD2F1 mice, M109 FR− tumour periphery", "setting": "intravenous, 2.2 nmol/kg, 48 h", "endpoint": "radioactivity in tissue", "value": "1.4 ± 0.3 µg-eq/g"}
{"Structure (SMILES)": "CC(C)[C@H](NC(=O)CNC(=O)[C@H](CCC(N)=O)NC(=O)[C@H](C)N)C(=O)O", "test system": "healthy male volunteers", "setting": "intravenous, 90 mg/kg/h, 2 h, added: LPS 2 ng/kg", "endpoint": "subjects with moderate AE", "value": "0%"}
{"Structure (SMILES)": "COC(=O)C[C@](O)(CCCC(C)(C)OC(C)=O)C(=O)O[C@@H]1C(OC)=C[C@]23CCCN2CCc2cc4c(cc2[C@H]13)OCO4", "test system": "CD1 mouse, pancreas", "setting": "subcutaneous, 1 mg/kg, 8 h", "endpoint": "tissue concentration", "value": "4.2 ng/mL"}
{"Structure (SMILES)": "CC(C)[C@@H]1NC(=O)[C@H](Cc2ccccc2)NC(=O)[C@H](Cc2ccc(O)cc2)NC(=O)CCSSC[C@@H](C(=O)N2CCC[C@H]2C(=O)N[C@H](CCCNC(=N)N)C(=O)NCC(N)=O)NC(=O)[C@H](CCC(N)=O)NC1=O", "test system": "Wistar rat, blood", "setting": "intravenous, 1 µg/kg single dose, 72 h", "endpoint": "AST", "value": "39.2 ± 6.7 IU/L"}
{"Structure (SMILES)": "CSCC[C@@H]1NC(=O)[C@@H]2CSSC[C@H](NC(=O)[C@H](CO)NC(=O)[C@H](C)N)C(=O)N[C@@H](CCCNC(=N)N)C(=O)N[C@@H]([C@@H](C)O)C(=O)N3CCC[C@H]3C(=O)N[C@@H](CCCCN)C(=O)N[C@@H](CC(=O)O)C(=O)N[C@H]3CSSC[C@H](NC(=O)[C@H](CCCCN)NC(=O)[C@H](CCCNC(=N)N)NC(=O)[C@H](CC(N)=O)NC1=O)C(=O)N[C@@H](CCCCN)C(=O)N[C@H]1CSSC[C@H](NC(=O)[C@@H]4CCCN4C(=O)[C@H](CC(=O)O)NC(=O)[C@H](C)NC3=O)C(=O)N[C@@H](C)C(=O)N[C@@H](CCCCN)C(=O)N[C@@H](CCC(=O)O)C(=O)N[C@@H]([C@@H](C)O)C(=O)NCC(=O)N[C@@H](CSSC[C@@H](C(N)=O)NC(=O)[C@H](CCCNC(=N)N)NC(=O)[C@H](CC(N)=O)NC1=O)C(=O)N1CCC[C@H]1C(=O)N[C@@H](Cc1ccc(O)cc1)C(=O)NCC(=O)N[C@@H](CCCCN)C(=O)N2", "test system": "DA rat pristane-induced arthritis, serum", "setting": "subcutaneous, 0.1 mg/kg single dose at onset, 21 days", "endpoint": "Potassium", "value": "4.76 mmol/L"}
{"Structure (SMILES)": "CCCCCCCCCCCCCCC(=O)O.O=C1CCCC2C3CCCN4CCCC(CN12)C34 (stereo not drawn)", "assay": "shake-flask", "test system": "simulated intestinal fluid", "setting": "pH 6.8, 25 °C", "endpoint": "log octanol-water partition coefficient", "value": -0.23}
{"Structure (SMILES)": "Nc1ccc(OC(=O)NC2CCCCC2)cc1-c1ccccc1", "test system": "rat plasma", "endpoint": "log hydrolysis rate constant", "value": -3.05}
{"Structure (SMILES)": "O=C(NCCCCCn1ccc2ccc(F)cc21)Oc1cccc(F)c1", "test system": "PBS with Triton X-100", "setting": "20 µM, 60 min, pH 7.4", "endpoint": "parent remaining", "value": "> 95%"}
{"Structure (SMILES)": "C/C=C/C=C/C/C=C/CCCCCCCc1cccc(O)c1O", "test system": "female Kunming mice, tumour-bearing, tumor", "setting": "intravenous, 10 mg/kg, 8 h", "endpoint": "tissue concentration", "value": "31500 ± 2570 ng/g"}
{"note": "A few entries again:"}
{"Structure (SMILES)": "CC[C@H](C)[C@H](NC(=O)CNC(=O)[C@H](CC(=O)O)NC(=O)[C@H](CC(C)C)NC(=O)[C@@H](NC(=O)[C@H](CC(N)=O)NC(=O)[C@H](CCC(N)=O)NC(=O)CNC(=O)[C@H](CC(C)C)NC(=O)[C@H](CCCCN)NC(=O)[C@H](CCC(=O)O)NC(=O)[C@@H](NC(=O)[C@H](CCCCN)NC(=O)[C@H](CCC(=O)O)NC(=O)[C@H](Cc1ccccc1)NC(=O)[C@H](CC(C)C)NC(=O)[C@H](CCCCN)NC(=O)[C@H](Cc1c[nH]c2ccccc12)NC(=O)[C@@H](N)CCC(=O)O)[C@@H](C)CC)[C@@H](C)CC)C(=O)N[C@H](C(=O)N[C@@H](CCCCN)C(=O)N[C@@H](CC(C)C)C(=O)NCC(=O)N1CCC[C@H]1C(=O)N[C@@H](CC(C)C)C(=O)N[C@@H](CC(C)C)C(=O)N[C@@H](C)C(=O)N[C@@H](CC(C)C)C(=O)N[C@@H](CC(C)C)C(=O)NCC(=O)N[C@@H](CCC(N)=O)C(=O)N[C@@H](CC(C)C)C(=O)N[C@H](C(=O)N[C@@H](CCC(N)=O)C(=O)N[C@H](C(=O)N[C@@H](C)C(=O)N[C@@H](CC(C)C)C(N)=O)[C@@H](C)CC)[C@@H](C)O)[C@@H](C)CC", "assay": "circular dichroism", "test system": "POPC vesicles 5 mM", "setting": "20 µM, fully membrane bound", "endpoint": "helicity", "value": "55%"}
{"Structure (SMILES)": "[2H]C([2H])([2H])C([2H])([2H])C([2H])([2H])OC(C(=O)OC1CCNCC1)(c1ccccc1)c1ccccc1", "assay": "measured: acne", "test system": "healthy Japanese male", "setting": "oral, 12 mg, 16 days, multiple ascending dose", "endpoint": "adverse drug reactions", "value": "0%"}
